Published values collected from several papers.
Parts stem from different laboratories: compare values within a part only.

Set 1 — technique: RNA Bind-n-Seq; form: RNA; sample: in vitro; concentration: 365 nM; reference: no-protein control; direction: higher = stronger binding; endpoint: RBNS enrichment (R)
Target: RNA binding protein fox-1 homolog 2, RRM domain, GST-SBP tag (RBFOX2, Homo sapiens, UniProt O43251-10, residues 100-194)
Notes: natural RNA segment, single round, ends assumed
Residues (chain): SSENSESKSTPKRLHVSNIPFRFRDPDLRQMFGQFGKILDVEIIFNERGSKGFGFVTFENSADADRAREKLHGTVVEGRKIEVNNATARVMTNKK
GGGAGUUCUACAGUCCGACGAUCCUACUUUGAGCAGGGUCUGAAUUUUUUCAUUUAUUUUCUUUUUGCCAGCAGACAGACUUGGGUCUAUAAAGACAAGCAAGUACACUGACAGAAAUUACCAUUUAGUUUCUUGGAAUUCUCGGGUGCCAA: 0.783
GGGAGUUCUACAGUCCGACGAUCCCACCUUUCACCCCACAGUGGUUUUCAAUUAGUAUUUAUUCCAUGGUGGAGUCUGUGAGGCUAGAAUAUCUCUCAGCAAGAGCAGCAUACCUCCAUGUUGUGAAGGCAUCUGGAAUUCUCGGGUGCCAA: 0.494
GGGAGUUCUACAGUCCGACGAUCUCUCCACUGUUAAACUCUGGGGAGUGGUAUCAGCUUUUGAAACCCUGCUCUAGACUCUUACAAAAUGGCUACACUUAGCACAUACUCUGCCCUGGCUAUAUAUUAUAUUGUGGAAUUCUCGGGUGCCAA: 0.503
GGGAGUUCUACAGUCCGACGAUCUCCCUCAGGACCCUGGGUAAGAUGGCUACAUUUAAGGUGACUCUGAAUGGUGGGGUUCUAGCUUGGUCACUUUCAUUUCUUGCCAUCAUAAAAACUAGUAGGCUGUGGAGUGGAAUUCUCGGGUGCCAA: 1.17
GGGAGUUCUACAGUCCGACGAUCGCUGCCAGGAUUGUCACUCCAAACCUUACUCUGAGCUCAUUAAUAAAAUAGAUUUAUUUUCCAGCUUUAGGAGUGAGUGUGGAUUUGGGCAGCAGAUUCAAGGCUGCAAAUGGAAUUCUCGGGUGCCAA: 0.437
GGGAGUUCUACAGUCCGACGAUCAAGGGUACCCAGACCUCACUUUUAGUUAUUUACAUCAAUGAGUUCUUUCAGGGAACCAAACCCAGAAUUCGGUGCAAAAGCCAAACAUCUUGGUGGGAUUUGAUAAAUGCUGGAAUUCUCGGGUGCCAA: 0.32
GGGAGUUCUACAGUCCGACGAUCAAGUUUACAGAUGUUUUUAAUUCUAGUAUUUUAUCUGGAACAACUUGUAGCAGCUAUAUAUUUCCCCUUGGUCCCAAGCCUGAUACUUUAGCCAUCAUAACUCACUAACAUGGAAUUCUCGGGUGCCAA: 0.519
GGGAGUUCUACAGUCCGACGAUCCACUGGAAGUCAAAUUCACUUAAAAAAGAAAUUGUGUGGCUUCACCAAGAAGCAGAGUUCAACUUAUUUCAUAAUUGCCUACAUUUAUCACAGUCCUGAAUGUAGCGUGUUGGAAUUCUCGGGUGCCAA: 0.845

Set 2 — organism: SARS-CoV-2; read-out: cytopathic effect; cell line: Vero E6; concentration: 10 µM; endpoint: inhibition
NC(Cc1cc(O)c(O)cc1O)C(=O)O (racemic): -3.5%
O=c1cc(-c2ccc(O)cc2)oc2cc(O)cc(O)c12: 6.4%
N#CSc1cc(SC#N)c(N)nc1N: -34.3%

Set 3 — mode: inhibitor; concentration: 20 µM; endpoint: inhibition
Target: Replicase polyprotein 1ab, nsp13 helicase (rep, Severe acute respiratory syndrome coronavirus 2, UniProt P0DTD1)
C=C[C@]1(C)CC[C@@H](C(=C)C)C[C@H]1C(=C)C: 2.12%
CC[C@H]1OC(=O)C[C@@H](O)[C@H](C)[C@@H](O[C@@H]2O[C@H](C)[C@@H](O[C@H]3C[C@@](C)(O)[C@@H](O)[C@H](C)O3)[C@H](N(C)C)[C@H]2O)[C@@H](CC=O)C[C@@H](C)C(=O)/C=C/C(C)=C/[C@@H]1CO[C@@H]1O[C@H](C)[C@@H](O)[C@@H](OC)[C@H]1OC: 8.58%
CN(C)CCC(c1ccc(Cl)cc1)c1ccccn1 (stereo not shown): 7.86%
O=c1oc(-c2ccc(C(F)(F)F)cc2)nn1Cc1cc(Cl)ccc1O: -1.38%
CCC(=O)[C@@]1(C)[C@H](C)C[C@H]2[C@@H]3CCC4=CC(=O)C=C[C@]4(C)[C@H]3[C@@H](O)C[C@@]21C: 2.02%
CN1CCN(CCc2ccc(Cl)c(Cl)c2)CC1: 3.37%
C[N+]1(C)[C@@H]2CC[C@H]1C[C@@H](OC(=O)C(O)c1ccccc1)C2 (stereo partly shown): 9.15%
CNC(=O)[C@H]1O[C@@H](n2cnc3c(NCc4cccc(I)c4)ncnc32)[C@H](O)[C@@H]1O: 0.88%
O=C(NCc1ccccc1)c1csc(Nc2ccncn2)n1: 3.58%
C[n+]1cccc(C(=O)[O-])c1: -3.23%
N#C[C@H](O[C@@H]1O[C@H](CO[C@@H]2O[C@H](CO)[C@@H](O)[C@H](O)[C@H]2O)[C@@H](O)[C@H](O)[C@H]1O)c1ccccc1: 1.75%
CCCN(CCC)C1Cc2cc(OC)c(OC)cc2C1: -3.65%
CN(C)C(=O)Nc1cccc(-c2ccc(N(C)C)cc2)c1: 3.13%
NC(=O)[C@H]1CCS[C@@H]2C[C@]3(CCCN3C(=O)Cc3ccc(NC(=O)COc4ccc(Cl)cc4Cl)cc3)C(=O)N12: -6.51%
O=C(Nc1cnn2ccc(N3CCC[C@@H]3c3cc(F)ccc3F)nc12)N1CC[C@H](O)C1: 6.49%
CCCCCCCCCCCCCCCCOc1nc2ccc(C)cc2c(=O)o1: 1.27%
N=C1NC(=O)/C(=C/c2ccc(O)cc2)S1: 8.2%
c1cnc(N2CCN(Cc3ccc4c(c3)OCO4)CC2)nc1: 0.47%
CCCS(=O)(=O)Nc1ccc(F)c(C(=O)c2c[nH]c3ncc(Cl)cc23)c1F: 11.7%
c1ccc2c(c1)CCCc1cc(NCCN3CCOCC3)nnc1-2: 9.59%
COc1ccc2c(c1)c(C1=C(c3c[nH]c4ccccc34)C(=O)NC1=O)cn2CCCN(C)C: 22.3%
CC(C)(C)N1CCC(c2ccccc2)(c2ccccc2)CC1: -6.35%
COc1ccc(CCN)cc1OC: -0.16%
COc1c2ccoc2cc2oc(=O)ccc12: 2%
O=C(O)c1cc(O)c2c3nc4ccccc4oc-3cc(=O)c2n1: 22.8%

Set 4 — cell line: HEK-293T; read-out: pseudovirus infection; technique: FDA-approved drug library screen; organism: VSV pseudotyped with SARS-CoV-2 spike; concentration: 10 µM; time: 16 h; reference: vehicle-treated; endpoint: GFP-positive cells
COc1ccccc1OCC(O)CN1CCN(CC(=O)Nc2c(C)cccc2C)CC1 (stereo not shown): 88.5%
COc1ccccc1OCC(O)COC(N)=O (stereo not shown): 100%
NC(=O)N1c2ccccc2C=Cc2ccccc21: 87.3%

Set 5 — technique: universal PBM; form: double-stranded DNA, one strand shown; sample: in vitro; concentration: not given; direction: higher = stronger binding; endpoint: E-score
Target: Sal-like protein 4, full length isoform B (SALL4, Homo sapiens, UniProt Q9UJQ4-2, residues 1-616)
Notes: 8-mer, flanks averaged, mean of replicates
Target sequence (chain): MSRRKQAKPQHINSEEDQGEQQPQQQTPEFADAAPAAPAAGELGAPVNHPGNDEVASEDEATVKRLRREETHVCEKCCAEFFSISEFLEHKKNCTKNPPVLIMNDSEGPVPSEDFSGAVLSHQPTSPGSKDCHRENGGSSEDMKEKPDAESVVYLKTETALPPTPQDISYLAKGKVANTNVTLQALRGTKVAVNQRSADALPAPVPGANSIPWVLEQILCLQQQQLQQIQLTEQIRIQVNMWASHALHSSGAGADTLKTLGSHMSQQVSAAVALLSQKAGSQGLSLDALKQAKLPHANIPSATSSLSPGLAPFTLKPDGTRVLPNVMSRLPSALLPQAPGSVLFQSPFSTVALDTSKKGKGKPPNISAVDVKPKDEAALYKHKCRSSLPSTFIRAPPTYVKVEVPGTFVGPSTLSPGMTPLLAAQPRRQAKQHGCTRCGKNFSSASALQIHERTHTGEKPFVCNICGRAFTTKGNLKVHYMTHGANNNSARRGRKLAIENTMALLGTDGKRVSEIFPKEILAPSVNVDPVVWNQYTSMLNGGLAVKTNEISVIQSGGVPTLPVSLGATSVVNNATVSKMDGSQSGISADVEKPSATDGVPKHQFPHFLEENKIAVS
CGCGATGC: -0.29
CTGCGGAA: -0.172
AAGCCTCC: -0.108
CCCTACTC: -0.0568
GCGCCTCC: -0.268
TAGGCCCA: -0.15
GATACACA: 0.164
ATCCAACG: -0.149

Set 6 — technique: protein binding microarray; form: double-stranded DNA, one strand shown; sample: in vitro; concentration: not given; reference: not given; direction: higher = stronger binding; endpoint: E-score
Target: Histone acetyltransferase KAT6A, both winged helices, GST fusion (KAT6A, Homo sapiens, UniProt Q92794, residues 1-181)
Notes: 8-mer, flanks averaged, mean of 2 arrays, mostly near background
Target sequence (chain): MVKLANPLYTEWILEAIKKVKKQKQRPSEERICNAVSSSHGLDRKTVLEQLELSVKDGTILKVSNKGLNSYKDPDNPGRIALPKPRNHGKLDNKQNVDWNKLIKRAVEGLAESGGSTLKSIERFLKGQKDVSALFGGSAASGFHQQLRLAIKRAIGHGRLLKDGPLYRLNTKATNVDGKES
ATCAACCA: 0.0253
ACTACGGA: 0.186
AAGCTCAC: -0.0225
GATGACCA: 0.114
AAAATCCA: -0.275
AAGGCAAC: -0.0989
ACTACCTG: -0.132
GGCACAAC: 0.0763

Some of these lines once more (set 6):
ACTACGGA: 0.186
GGCACAAC: 0.0763
AAGGCAAC: -0.0989
ACTACCTG: -0.132
AAGCTCAC: -0.0225
AAAATCCA: -0.275
ATCAACCA: 0.0253
GATGACCA: 0.114
